{"data": "Measurements gathered from unrelated publications", "note": "Compare with care: the assays were run in different laboratories. Several values in a cell are separate wells, animals, samples, runs or records. ± gives the spread as reported.", "sequence of UniProt P18177 (whole entry, looked up)": "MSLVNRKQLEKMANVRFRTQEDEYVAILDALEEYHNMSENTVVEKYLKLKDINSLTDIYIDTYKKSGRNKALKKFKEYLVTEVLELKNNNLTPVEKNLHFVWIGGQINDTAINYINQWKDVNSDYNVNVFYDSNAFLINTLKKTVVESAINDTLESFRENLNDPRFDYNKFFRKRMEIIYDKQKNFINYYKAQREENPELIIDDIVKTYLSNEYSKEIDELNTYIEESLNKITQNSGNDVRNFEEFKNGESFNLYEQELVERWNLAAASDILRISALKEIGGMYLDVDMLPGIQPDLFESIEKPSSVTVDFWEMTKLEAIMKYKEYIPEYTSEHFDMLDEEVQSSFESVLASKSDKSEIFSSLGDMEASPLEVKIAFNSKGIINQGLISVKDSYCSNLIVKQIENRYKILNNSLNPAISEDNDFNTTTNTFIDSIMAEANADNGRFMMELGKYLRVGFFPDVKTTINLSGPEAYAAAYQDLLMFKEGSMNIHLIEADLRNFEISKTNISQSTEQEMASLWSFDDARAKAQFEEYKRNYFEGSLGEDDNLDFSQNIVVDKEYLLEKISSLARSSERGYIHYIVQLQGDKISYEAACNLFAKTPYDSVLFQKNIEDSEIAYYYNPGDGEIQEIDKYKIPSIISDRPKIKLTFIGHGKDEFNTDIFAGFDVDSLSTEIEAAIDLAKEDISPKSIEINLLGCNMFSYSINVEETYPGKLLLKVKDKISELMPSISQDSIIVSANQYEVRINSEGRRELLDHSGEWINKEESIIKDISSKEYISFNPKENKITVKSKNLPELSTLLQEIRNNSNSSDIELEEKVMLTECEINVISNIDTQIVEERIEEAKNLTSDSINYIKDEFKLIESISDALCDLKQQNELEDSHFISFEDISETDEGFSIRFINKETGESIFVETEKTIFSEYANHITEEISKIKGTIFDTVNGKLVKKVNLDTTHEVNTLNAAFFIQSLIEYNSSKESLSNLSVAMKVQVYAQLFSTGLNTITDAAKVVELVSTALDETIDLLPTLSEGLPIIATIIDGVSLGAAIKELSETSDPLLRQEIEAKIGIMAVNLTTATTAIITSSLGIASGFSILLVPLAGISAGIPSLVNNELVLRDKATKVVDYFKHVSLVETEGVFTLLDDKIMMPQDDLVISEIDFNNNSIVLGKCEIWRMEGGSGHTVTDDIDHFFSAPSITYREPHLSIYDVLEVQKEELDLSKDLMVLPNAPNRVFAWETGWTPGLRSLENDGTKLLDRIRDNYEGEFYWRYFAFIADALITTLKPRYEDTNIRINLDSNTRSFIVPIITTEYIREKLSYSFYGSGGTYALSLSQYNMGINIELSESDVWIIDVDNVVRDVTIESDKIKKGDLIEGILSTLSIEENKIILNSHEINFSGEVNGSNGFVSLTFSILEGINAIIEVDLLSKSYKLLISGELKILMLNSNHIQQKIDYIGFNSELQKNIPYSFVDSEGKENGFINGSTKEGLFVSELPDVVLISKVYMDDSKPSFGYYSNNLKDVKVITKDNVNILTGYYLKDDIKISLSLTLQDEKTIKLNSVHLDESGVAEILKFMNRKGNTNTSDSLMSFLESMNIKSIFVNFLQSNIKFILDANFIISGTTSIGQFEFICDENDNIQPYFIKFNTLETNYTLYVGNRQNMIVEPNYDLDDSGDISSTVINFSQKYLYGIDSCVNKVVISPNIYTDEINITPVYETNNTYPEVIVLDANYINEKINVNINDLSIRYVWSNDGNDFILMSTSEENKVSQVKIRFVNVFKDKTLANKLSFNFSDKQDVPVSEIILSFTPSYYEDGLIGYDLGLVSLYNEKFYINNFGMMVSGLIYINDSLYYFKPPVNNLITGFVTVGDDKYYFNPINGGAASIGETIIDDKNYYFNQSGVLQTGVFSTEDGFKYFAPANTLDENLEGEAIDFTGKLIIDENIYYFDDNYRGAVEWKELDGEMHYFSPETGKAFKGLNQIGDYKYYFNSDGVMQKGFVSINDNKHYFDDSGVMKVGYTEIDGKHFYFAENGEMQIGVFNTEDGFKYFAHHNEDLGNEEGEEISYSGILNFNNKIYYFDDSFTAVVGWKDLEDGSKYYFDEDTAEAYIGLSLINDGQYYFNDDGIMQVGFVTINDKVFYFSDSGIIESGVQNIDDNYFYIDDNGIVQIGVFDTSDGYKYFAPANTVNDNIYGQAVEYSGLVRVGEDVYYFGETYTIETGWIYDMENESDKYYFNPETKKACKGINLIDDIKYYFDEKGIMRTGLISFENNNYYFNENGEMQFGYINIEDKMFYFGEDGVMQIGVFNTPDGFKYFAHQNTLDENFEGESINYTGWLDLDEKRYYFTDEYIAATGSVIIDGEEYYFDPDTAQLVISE"}
{"SMILES": "CC(C)C(=O)OC[C@@]1(F)O[C@@H](n2cnc(-c3c[nH]c(=O)nc3N)c2)[C@H](OC(=O)C(C)C)[C@@H]1OC(=O)C(C)C", "target or system": "Zaire ebolavirus", "test": "viral replication, reporter virus", "system": "Huh-7", "setting": "72 h", "quantity": "IC50", "result": "66.6 µM"}
{"SMILES": "COc1cc2ncnc(Nc3cccc(Cl)c3)c2cc1OC", "target or system": "Monkeypox virus", "test": "viral infection", "system": "replication-deficient", "setting": "11.11 µM", "scale": "relative to: untreated", "quantity": "infection", "result": "1.92% and 1.79% and 1.81%"}
{"SMILES": "COP(=O)(OC)Oc1ccc([N+](=O)[O-])cc1", "target or system": "muscarinic receptors, rat", "test": "radioligand displacement", "system": "adult cortex membranes", "setting": "90 min, 21 °C, with: 1 nM [3H]oxotremorine-M", "quantity": "IC50", "result": "0.007 µM"}
{"SMILES": "CC(C)(C)NC(=S)N/N=C/C=N/NC(=S)NC(C)(C)C", "target or system": "VSVΔG pseudotyped with MERS-CoV S", "test": "pseudovirus infection", "setting": "10 µM", "quantity": "inhibition", "result": "60%"}
{"SMILES": "NC1=N[C@H](O)[C@H]2[C@H]3O[C@]4(O)O[C@@H]([C@@H](O)[C@@]2(N1)[C@@H]4O)[C@]3(O)CO", "target or system": "mouse primary hippocampal neurons", "setting": "concentration not given", "scale": "relative to: untreated", "quantity": "surface GluA1 puncta intensity", "result": "~1.6 fold"}
{"SMILES": "CCOP(=S)(OCC)Oc1nc(Cl)c(Cl)cc1Cl", "target or system": "ReNcell VM", "test": "YO-PRO-1 staining", "setting": "24 h", "quantity": "lowest concentration increasing apoptotic cells", "result": "≤ 0.78 µM"}
{"SMILES": "O=P(O)(O)OC1C(OP(=O)(O)O)C(OP(=O)(O)O)C(OP(=O)(O)O)C(OP(=O)(O)O)C1OP(=O)(O)O (centres unmarked)", "target or system": "Toxin B (tcdB, Clostridioides difficile, UniProt P18177)", "test": "autoprocessing, activator, SDS-PAGE densitometry", "system": "10463", "setting": "1 h", "quantity": "EC50", "result": "4.7 ± 0.9 µM"}
{"SMILES": "COc1ncc(-c2cn([C@@H]3O[C@](F)(COC(=O)C(C)C)[C@@H](OC(=O)C(C)C)[C@H]3OC(=O)C(C)C)cn2)c(OC)n1", "target or system": "Zaire ebolavirus", "test": "viral replication, reporter virus", "system": "Huh-7", "setting": "72 h", "quantity": "IC50", "result": "> 100 µM"}
{"note": "Excerpt of the above:"}
{"SMILES": "CC(C)(C)NC(=S)N/N=C/C=N/NC(=S)NC(C)(C)C", "target or system": "VSVΔG pseudotyped with MERS-CoV S", "test": "pseudovirus infection", "setting": "10 µM", "quantity": "inhibition", "result": "60%"}
